Published values collected from several papers.
Each numbered part is a random draw from the data of one study; scales do not carry over between parts.
Sequence of UniProt P10721 (whole entry, unmodified, looked up): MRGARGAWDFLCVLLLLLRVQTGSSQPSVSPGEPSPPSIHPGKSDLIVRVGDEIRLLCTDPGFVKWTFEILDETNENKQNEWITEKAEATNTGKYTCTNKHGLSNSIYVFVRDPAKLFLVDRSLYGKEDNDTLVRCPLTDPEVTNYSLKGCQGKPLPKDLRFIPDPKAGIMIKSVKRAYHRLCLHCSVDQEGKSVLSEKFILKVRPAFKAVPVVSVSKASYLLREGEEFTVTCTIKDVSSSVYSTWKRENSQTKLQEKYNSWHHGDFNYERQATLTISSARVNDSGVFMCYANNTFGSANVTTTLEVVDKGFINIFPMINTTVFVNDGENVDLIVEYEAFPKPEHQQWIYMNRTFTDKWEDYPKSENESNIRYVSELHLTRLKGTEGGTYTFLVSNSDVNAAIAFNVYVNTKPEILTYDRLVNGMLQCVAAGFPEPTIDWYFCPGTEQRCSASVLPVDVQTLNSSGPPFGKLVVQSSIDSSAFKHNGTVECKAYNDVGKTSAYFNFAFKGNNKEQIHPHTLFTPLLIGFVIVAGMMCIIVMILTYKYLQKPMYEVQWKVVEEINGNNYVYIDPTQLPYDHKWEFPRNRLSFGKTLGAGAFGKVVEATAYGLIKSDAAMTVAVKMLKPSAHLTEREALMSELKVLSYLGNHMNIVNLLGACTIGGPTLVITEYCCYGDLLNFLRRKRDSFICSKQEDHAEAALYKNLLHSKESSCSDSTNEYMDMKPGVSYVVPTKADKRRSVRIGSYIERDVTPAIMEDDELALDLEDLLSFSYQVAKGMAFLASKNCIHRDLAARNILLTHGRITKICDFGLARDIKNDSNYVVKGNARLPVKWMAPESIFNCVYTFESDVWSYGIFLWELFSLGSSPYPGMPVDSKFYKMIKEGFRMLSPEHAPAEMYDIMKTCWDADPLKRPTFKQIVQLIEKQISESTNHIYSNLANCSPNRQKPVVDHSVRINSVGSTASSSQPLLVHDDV
Sequence of UniProt Q9Y2T5 (whole entry, looked up): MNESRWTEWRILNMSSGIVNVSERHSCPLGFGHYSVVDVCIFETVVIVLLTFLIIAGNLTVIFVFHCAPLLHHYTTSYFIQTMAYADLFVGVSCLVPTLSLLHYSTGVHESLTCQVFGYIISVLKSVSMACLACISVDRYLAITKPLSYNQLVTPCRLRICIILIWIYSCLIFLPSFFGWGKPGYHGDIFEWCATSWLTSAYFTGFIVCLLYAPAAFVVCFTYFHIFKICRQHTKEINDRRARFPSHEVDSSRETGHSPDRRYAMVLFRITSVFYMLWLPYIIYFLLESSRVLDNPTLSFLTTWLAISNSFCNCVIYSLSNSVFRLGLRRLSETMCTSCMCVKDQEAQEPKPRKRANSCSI
Sequence of UniProt P42679 (whole entry, looked up): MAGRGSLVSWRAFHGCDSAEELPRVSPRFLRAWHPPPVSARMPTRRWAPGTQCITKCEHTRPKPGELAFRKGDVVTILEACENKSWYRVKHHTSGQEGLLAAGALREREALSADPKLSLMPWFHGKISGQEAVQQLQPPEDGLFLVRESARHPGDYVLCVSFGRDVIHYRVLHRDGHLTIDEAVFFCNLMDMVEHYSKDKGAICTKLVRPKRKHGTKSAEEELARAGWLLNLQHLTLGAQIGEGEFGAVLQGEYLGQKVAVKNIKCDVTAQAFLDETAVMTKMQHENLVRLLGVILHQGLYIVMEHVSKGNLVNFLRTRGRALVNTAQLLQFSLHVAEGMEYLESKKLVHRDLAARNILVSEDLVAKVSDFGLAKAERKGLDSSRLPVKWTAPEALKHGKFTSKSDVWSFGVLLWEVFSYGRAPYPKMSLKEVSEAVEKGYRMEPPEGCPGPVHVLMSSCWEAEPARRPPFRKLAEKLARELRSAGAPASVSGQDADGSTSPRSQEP
Sequence of UniProt Q00535 (whole entry, looked up): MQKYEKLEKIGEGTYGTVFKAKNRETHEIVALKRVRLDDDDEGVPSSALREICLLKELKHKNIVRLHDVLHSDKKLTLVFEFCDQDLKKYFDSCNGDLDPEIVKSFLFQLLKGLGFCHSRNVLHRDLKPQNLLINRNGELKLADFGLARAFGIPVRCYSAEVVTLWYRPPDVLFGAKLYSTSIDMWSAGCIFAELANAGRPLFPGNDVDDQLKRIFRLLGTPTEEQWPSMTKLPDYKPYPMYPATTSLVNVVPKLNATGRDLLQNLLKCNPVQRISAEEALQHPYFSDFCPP
Sequence of UniProt P41594 (whole entry, looked up): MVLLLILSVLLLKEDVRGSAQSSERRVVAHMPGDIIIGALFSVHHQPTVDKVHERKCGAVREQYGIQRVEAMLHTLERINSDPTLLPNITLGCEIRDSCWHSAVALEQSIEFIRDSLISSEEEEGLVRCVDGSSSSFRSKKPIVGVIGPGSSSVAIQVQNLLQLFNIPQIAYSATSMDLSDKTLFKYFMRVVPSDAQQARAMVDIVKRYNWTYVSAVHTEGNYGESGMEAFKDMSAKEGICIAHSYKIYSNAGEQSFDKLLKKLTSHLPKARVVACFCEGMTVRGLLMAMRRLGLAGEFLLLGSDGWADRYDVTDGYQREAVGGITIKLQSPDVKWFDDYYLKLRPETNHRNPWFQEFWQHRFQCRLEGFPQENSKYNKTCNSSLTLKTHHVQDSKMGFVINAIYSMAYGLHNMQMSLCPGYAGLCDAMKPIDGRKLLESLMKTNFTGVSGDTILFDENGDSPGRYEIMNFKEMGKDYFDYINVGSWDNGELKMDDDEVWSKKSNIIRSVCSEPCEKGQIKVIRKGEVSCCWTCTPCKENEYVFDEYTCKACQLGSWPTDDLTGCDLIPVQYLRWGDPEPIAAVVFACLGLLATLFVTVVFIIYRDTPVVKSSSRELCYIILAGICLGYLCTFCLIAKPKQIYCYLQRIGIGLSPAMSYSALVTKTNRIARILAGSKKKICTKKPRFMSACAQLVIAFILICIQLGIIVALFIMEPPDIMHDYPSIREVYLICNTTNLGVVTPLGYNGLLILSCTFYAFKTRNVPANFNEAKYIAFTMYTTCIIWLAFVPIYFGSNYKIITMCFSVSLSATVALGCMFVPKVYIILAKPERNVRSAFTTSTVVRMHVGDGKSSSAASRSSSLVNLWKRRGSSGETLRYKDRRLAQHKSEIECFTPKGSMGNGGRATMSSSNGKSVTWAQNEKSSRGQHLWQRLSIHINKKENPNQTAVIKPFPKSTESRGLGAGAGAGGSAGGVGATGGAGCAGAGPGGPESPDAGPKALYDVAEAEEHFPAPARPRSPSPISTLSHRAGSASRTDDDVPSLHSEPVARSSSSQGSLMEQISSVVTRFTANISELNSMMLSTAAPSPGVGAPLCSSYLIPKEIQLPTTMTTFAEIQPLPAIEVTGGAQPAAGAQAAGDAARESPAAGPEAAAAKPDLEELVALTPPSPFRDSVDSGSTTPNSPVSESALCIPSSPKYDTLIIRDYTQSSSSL
Sequence of UniProt Q08345 (whole entry, looked up): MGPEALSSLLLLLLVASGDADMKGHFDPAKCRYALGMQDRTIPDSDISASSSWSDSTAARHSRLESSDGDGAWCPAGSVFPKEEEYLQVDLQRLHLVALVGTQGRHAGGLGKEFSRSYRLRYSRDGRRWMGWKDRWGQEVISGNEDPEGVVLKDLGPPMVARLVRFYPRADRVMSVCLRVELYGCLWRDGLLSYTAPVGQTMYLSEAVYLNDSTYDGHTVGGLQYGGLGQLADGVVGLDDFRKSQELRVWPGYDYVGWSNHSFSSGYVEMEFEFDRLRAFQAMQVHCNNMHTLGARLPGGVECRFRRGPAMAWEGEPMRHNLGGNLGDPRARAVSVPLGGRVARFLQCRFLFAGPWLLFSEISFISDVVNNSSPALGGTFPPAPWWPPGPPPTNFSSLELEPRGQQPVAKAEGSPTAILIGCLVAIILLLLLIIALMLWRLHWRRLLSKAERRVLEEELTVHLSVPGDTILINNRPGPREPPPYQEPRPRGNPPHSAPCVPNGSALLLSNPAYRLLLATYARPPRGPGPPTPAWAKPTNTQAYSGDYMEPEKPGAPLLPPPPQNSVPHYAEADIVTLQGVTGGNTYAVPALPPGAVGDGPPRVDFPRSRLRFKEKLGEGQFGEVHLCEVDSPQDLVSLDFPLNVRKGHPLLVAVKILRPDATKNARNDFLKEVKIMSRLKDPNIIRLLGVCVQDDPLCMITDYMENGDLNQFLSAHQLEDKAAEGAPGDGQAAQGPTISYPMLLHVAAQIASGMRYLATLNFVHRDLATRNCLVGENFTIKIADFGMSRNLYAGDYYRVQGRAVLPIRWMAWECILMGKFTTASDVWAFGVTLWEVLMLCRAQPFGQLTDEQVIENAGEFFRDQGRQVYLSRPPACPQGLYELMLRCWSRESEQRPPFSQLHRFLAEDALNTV
Sequence of UniProt P25106 (whole entry, looked up): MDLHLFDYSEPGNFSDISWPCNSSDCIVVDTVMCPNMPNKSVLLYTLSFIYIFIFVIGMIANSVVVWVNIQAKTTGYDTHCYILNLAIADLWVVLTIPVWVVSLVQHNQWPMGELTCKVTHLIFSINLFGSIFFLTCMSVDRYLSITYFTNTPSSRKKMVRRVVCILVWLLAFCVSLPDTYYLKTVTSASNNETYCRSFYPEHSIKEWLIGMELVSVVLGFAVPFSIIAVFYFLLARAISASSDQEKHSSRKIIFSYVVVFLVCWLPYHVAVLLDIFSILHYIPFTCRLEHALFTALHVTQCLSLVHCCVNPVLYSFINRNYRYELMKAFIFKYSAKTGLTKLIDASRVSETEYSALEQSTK
Sequence of UniProt O15264 (whole entry, looked up): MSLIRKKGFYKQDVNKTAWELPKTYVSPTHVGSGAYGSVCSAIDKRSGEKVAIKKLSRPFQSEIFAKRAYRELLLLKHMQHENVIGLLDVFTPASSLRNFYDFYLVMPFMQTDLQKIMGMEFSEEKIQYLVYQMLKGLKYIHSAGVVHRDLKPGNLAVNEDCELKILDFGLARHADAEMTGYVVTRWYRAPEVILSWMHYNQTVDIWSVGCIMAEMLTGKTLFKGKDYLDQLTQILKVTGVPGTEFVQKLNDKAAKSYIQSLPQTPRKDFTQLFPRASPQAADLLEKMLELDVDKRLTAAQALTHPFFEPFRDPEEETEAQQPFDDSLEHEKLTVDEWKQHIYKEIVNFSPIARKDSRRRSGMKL

Series 1
Method: logD(dd/w) and ALogP
Notes: JT method
Quantity: lipophilic permeability efficiency
SMILES = CC(C)C[C@@H]1NC(=O)[C@H](C)NC(=O)[C@@H](CC(C)C)NC(=O)[C@H](C)NC(=O)[C@H](CC(C)C)NC(=O)[C@H](CC(C)C)NC(=O)[C@H](CC(C)C)NC1=O; result = 2.89
SMILES = CC(C)C[C@@H]1NC(=O)[C@H](CC(C)C)NC(=O)[C@@H](CC(C)C)NC(=O)[C@H](C(C)C)NC(=O)[C@H](C(C)C)NC(=O)[C@H](Cc2cscn2)NC(=O)[C@H](C)NC1=O; result = 2.18
SMILES = CC(C)C[C@@H]1NC(=O)[C@H](CC(C)C)NC(=O)[C@H](CC(C)C)NC(=O)[C@H](CC(C)C)NC(=O)[C@@H](Cc2cscn2)NC(=O)[C@H](C)NC(=O)[C@H](CCC(=O)N2CCCC2)NC1=O; result = 1.82
SMILES = CC(C)C[C@@H]1NC(=O)[C@H](Cc2cscn2)NC(=O)[C@H](CCC(=O)N2CCCC2)NC(=O)[C@H](C)NC(=O)[C@@H](Cc2cscn2)NC(=O)[C@H](CC(C)C)NC(=O)[C@@H](CC(C)C)NC1=O; result = 2
SMILES = CC(C)C[C@@H]1NC(=O)[C@H](C(C)C)NC(=O)[C@@H](CC(C)C)NC(=O)[C@@H](CC(C)C)NC(=O)[C@@H](Cc2cscn2)NC(=O)[C@H](CC(C)C)NC(=O)[C@@H](CC(C)C)NC1=O; result = 2.09
SMILES = CC(C)C[C@@H]1NC(=O)[C@H](C)NC(=O)[C@H](C)NC(=O)[C@H](CCC(=O)N2CCCC2)NC(=O)[C@H](CC(C)C)NC(=O)[C@H](CC(C)C)NC(=O)[C@H](CC(C)C)NC1=O; result = 1.82
SMILES = CC(C)C[C@@H]1NC(=O)[C@H](C(C)C)NC(=O)[C@H](CC(C)C)NC(=O)[C@@H](CC(C)C)NC(=O)[C@H](CC(C)C)NC(=O)[C@H](C(C)C)NC(=O)[C@H](Cc2cscn2)NC1=O; result = 2.46
SMILES = CC(C)C[C@@H]1NC(=O)[C@H](CC(C)C)NC(=O)[C@H](CC(C)C)NC(=O)[C@H](C(C)C)NC(=O)[C@H](C)NC(=O)[C@H](Cc2cscn2)NC(=O)[C@H](CCC(=O)N2CCCC2)NC1=O; result = 2.06
SMILES = CC(C)C[C@@H]1NC(=O)[C@H](C(C)C)NC(=O)[C@H](C)NC(=O)[C@H](CC(C)C)NC(=O)[C@H](C(C)C)NC(=O)[C@H](CC(C)C)NC(=O)[C@@H](CC(C)C)NC1=O; result = 2.74

Series 2
Structure (SMILES): NC(N)=NC(=O)c1nc(Cl)c(N2CCCCCC2)nc1N
Effect on: β-arrestin recruitment
Action: agonist
Method: PRESTO-Tango
Concentration: 10 µM
Baseline: untreated
Quantity: fold over basal
target = Melanocortin receptor 4 (MC4R, Homo sapiens, UniProt P32245); result = 1.7
target = Beta-1 adrenergic receptor (ADRB1, Homo sapiens, UniProt P08588); result = 1.07
target = G-protein coupled receptor 55 (GPR55, Homo sapiens, UniProt Q9Y2T6); result = 1.35
target = Metabotropic glutamate receptor 5 (GRM5, Homo sapiens, UniProt P41594); result = 0.63 fold
target = Trace amine-associated receptor 2 (TAAR2, Homo sapiens, UniProt Q9P1P5); result = 0.88 fold
target = Extracellular calcium-sensing receptor (CASR, Homo sapiens, UniProt P41180); result = 0.69
target = G-protein coupled receptor 52 (GPR52, Homo sapiens, UniProt Q9Y2T5); result = 0.92
target = Atypical chemokine receptor 3 (ACKR3, Homo sapiens, UniProt P25106); result = 7.61

Series 3
Species: mouse
Sample: microsomes or S9
Concentration: 2 µM
Time: 0.5 h
Quantity: remaining compound
Structure (SMILES) = CCOc1ccc2nc(NC(=O)CN(C)S(=O)(=O)c3ccc(Br)s3)sc2c1; result = < 1%
Structure (SMILES) = CCc1nc(-c2ccncc2)cc2c1sc1ccccc12; result = 1.66%
Structure (SMILES) = CN(C)c1nc2sc(C(=O)NCc3cc4ccccc4[nH]3)cc2s1; result = 3.72%
Structure (SMILES) = Cc1[nH]c(C(=O)NCc2ccc3c(c2)OCO3)c(C)c1S(=O)(=O)N1CCCCCC1; result = 86.6%
Structure (SMILES) = CC1Cc2ccccc2N1S(=O)(=O)c1ccc2c(c1)c(=O)n(CC(=O)N1CCCC1)c(=O)n2C (stereo not drawn); result = 13.2%
Structure (SMILES) = O=C1CC(c2ccccc2)=NN1c1nc(-c2ccc(Cl)cc2)cs1; result = 96.5%
Structure (SMILES) = CC(C)C[C@@H]1NC(=O)[C@H](Cc2nc(Br)[nH]c2Br)NC1=O; result = 77.9%
Structure (SMILES) = CC(CC(=O)O)CC(=O)Nc1sc(C(C)C)cc1C(N)=O (stereo not drawn); result = 95.5%

Series 4
SMILES: c1ccc(N2CCN(Cc3nc4ccccc4[nH]3)CC2)nc1
Method: competition with immobilised ligand
Concentration: 1 µM
Quantity: remaining binding
target = Mast/stem cell growth factor receptor Kit (KIT, Homo sapiens, UniProt P10721, A829P); effect on = binding; result = 100%
target = Fibroblast growth factor receptor 4 (FGFR4, Homo sapiens, UniProt P22455); effect on = cell-free assay; result = 93%
target = Epithelial discoidin domain-containing receptor 1 (DDR1, Homo sapiens, UniProt Q08345); effect on = cell-free assay; result = 100%
target = Tyrosine-protein kinase ABL1, phosphorylated (ABL1, Homo sapiens, UniProt P00519, H396P); effect on = binding; result = 100%
target = Mitogen-activated protein kinase kinase kinase 4 (MAP3K4, Homo sapiens, UniProt Q9Y6R4); effect on = binding; result = 100%
target = Mitogen-activated protein kinase 13 (MAPK13, Homo sapiens, UniProt O15264); effect on = binding; result = 100%
target = Dual specificity mitogen-activated protein kinase kinase 7 (MAP2K7, Homo sapiens, UniProt O14733); effect on = binding; result = 100%
target = Epidermal growth factor receptor (EGFR, Homo sapiens, UniProt P00533, G719S); effect on = cell-free assay; result = 91%
target = Serine/threonine-protein kinase TAO1 (TAOK1, Homo sapiens, UniProt Q7L7X3); effect on = binding; result = 100%
target = Cyclin-dependent kinase 5 (CDK5, Homo sapiens, UniProt Q00535); effect on = binding; result = 100%
target = Tyrosine-protein kinase ABL1, non-phosphorylated (ABL1, Homo sapiens, UniProt P00519, T315I); effect on = binding; result = 100%
target = Megakaryocyte-associated tyrosine-protein kinase (MATK, Homo sapiens, UniProt P42679); effect on = binding; result = 100%
target = Tyrosine-protein kinase ABL1, phosphorylated (ABL1, Homo sapiens, UniProt P00519, T315I); effect on = binding; result = 100%
target = Tyrosine-protein kinase Fer (FER, Homo sapiens, UniProt P16591); effect on = binding; result = 100%
target = Calcium/calmodulin-dependent protein kinase kinase 1 (CAMKK1, Homo sapiens, UniProt Q8N5S9); effect on = binding; result = 98%
target = Mast/stem cell growth factor receptor Kit (KIT, Homo sapiens, UniProt P10721, T670I/V559D); effect on = binding; result = 95%
target = Serine/threonine-protein kinase PAK 2 (PAK2, Homo sapiens, UniProt Q13177); effect on = cell-free assay; result = 100%

Excerpt of the above (series 1):
SMILES = CC(C)C[C@@H]1NC(=O)[C@H](CC(C)C)NC(=O)[C@H](CC(C)C)NC(=O)[C@H](CC(C)C)NC(=O)[C@@H](Cc2cscn2)NC(=O)[C@H](C)NC(=O)[C@H](CCC(=O)N2CCCC2)NC1=O; result = 1.82
SMILES = CC(C)C[C@@H]1NC(=O)[C@H](CC(C)C)NC(=O)[C@@H](CC(C)C)NC(=O)[C@H](C(C)C)NC(=O)[C@H](C(C)C)NC(=O)[C@H](Cc2cscn2)NC(=O)[C@H](C)NC1=O; result = 2.18
SMILES = CC(C)C[C@@H]1NC(=O)[C@H](C)NC(=O)[C@@H](CC(C)C)NC(=O)[C@H](C)NC(=O)[C@H](CC(C)C)NC(=O)[C@H](CC(C)C)NC(=O)[C@H](CC(C)C)NC1=O; result = 2.89
SMILES = CC(C)C[C@@H]1NC(=O)[C@H](CC(C)C)NC(=O)[C@H](CC(C)C)NC(=O)[C@H](C(C)C)NC(=O)[C@H](C)NC(=O)[C@H](Cc2cscn2)NC(=O)[C@H](CCC(=O)N2CCCC2)NC1=O; result = 2.06
SMILES = CC(C)C[C@@H]1NC(=O)[C@H](C(C)C)NC(=O)[C@H](C)NC(=O)[C@H](CC(C)C)NC(=O)[C@H](C(C)C)NC(=O)[C@H](CC(C)C)NC(=O)[C@@H](CC(C)C)NC1=O; result = 2.74
SMILES = CC(C)C[C@@H]1NC(=O)[C@H](C(C)C)NC(=O)[C@@H](CC(C)C)NC(=O)[C@@H](CC(C)C)NC(=O)[C@@H](Cc2cscn2)NC(=O)[C@H](CC(C)C)NC(=O)[C@@H](CC(C)C)NC1=O; result = 2.09
SMILES = CC(C)C[C@@H]1NC(=O)[C@H](C(C)C)NC(=O)[C@H](CC(C)C)NC(=O)[C@@H](CC(C)C)NC(=O)[C@H](CC(C)C)NC(=O)[C@H](C(C)C)NC(=O)[C@H](Cc2cscn2)NC1=O; result = 2.46
